# Results pooled from the literature.
# A part holds a random share of what one study measured. Positions count from the first letter of the parent shown.

# Block 1
# Target: ABI1, truncated, D143A, DHFR fusion (Arabidopsis thaliana, UniProt P49597)
# Technique: DHFR PCA, dose-response
# Matrix: yeast
# Setting: Hill fit, mean, not affinity
# With: (+)-ABA, dose series
# Direction: lower = more sensitive
# Starting sequence: PYL1, truncated, DHFR fusion (Arabidopsis thaliana, UniProt Q8VZS8); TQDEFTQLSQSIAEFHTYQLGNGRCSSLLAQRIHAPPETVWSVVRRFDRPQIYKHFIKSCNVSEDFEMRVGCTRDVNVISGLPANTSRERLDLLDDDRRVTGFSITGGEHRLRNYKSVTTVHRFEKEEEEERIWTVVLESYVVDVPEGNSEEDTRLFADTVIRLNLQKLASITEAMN
Variant,ABA EC50
T39I,5.93 µM
R132A,1.07 µM
Q31K,3.65 µM
T160H,6.93 µM
T101K,544 µM
E129N,2.07 µM
D3N,5.39 µM
L164V,0.961 µM
T86C,2.26 µM
R98S,20.6 µM
R46S,5.93 µM
A35L,323 µM
Y18L,20.5 µM
P36E,4.23 µM
N61P,97.9 µM
T6F,12.8 µM
T173P,525 µM
V44A,47.3 µM
G81K,159 µM
E4P,3.52 µM
E4H,3.02 µM
E67Q,2.96 µM
R111E,196 µM
E38D,2.37 µM
I79C,4.91 µM

# Block 2
# Target: Interferon regulatory factor 5, full length, phosphomimetic (IRF5, Homo sapiens, UniProt Q13568-2, residues 1-514, S451D/S453D/S456D/S462D)
# Technique: protein-binding microarray
# Form: double-stranded DNA, one strand shown
# Matrix: in vitro
# Tested at: 940 nM top
# Setting: 60-bp whole probe
# With: salmon DNA 0.4 mg/ml
# Reference: random background probes
# Direction: higher = stronger binding
# Shared flanks, not repeated: GCCTAGCAC … GTCTTGATTCGCTTGACGCTGCTG
Sequence,fitted relative affinity
CATCATTGCTTTCTCTTTCAGTGCTAG,2.37 z-score
TCAAATGTCCTCCTCTCACTGTGCTAG,0.899 z-score
GACGGTTTGGGTCTCGGGACGTGCTAG,0.654 z-score
TCATATGTGTATATATAACTGTGCTAG,0.119 z-score
AACCGCACAGAACTAAAACAGTGCTAG,-0.089 z-score
TTAGGTCTGGGGTTTCGGTTAGTGCTA,5.71 z-score
TTAGATTTCCGTCTCGATTAGTGCTAG,2.66 z-score
TACTCTCTCCATGTGTTTAAGTGCTAG,2.16 z-score
TTAGGTCTCCTCTTCCTTTAGTGCTAG,0.501 z-score
GACGGTCTCTTACTGCTGACGTGCTAG,0.284 z-score
TTCGATATCAGTATCGATTAGTGCTAG,5.3 z-score
GGTGGGGTGCAGCAGGGCCAGTGCTAG,-0.414 z-score
TCACTTTTATGCTCTTTCACTGTGCTA,1.87 z-score
TTAGCACTGGGGACTGGGTTAGTGCTA,-0.188 z-score
TTAGGTATCGGACTGCGTTAGTGCTAG,3.57 z-score
GACGGACTGGGTCTCGGTACGTGCTAG,0.769 z-score

# Block 3
# Target: Sal-like protein 4, full length isoform B (SALL4, Homo sapiens, UniProt Q9UJQ4-2, residues 1-616)
# Technique: universal PBM
# Form: double-stranded DNA, one strand shown
# Matrix: in vitro
# Tested at: not given
# Setting: 8-mer, flanks averaged, mean of replicates
# Direction: higher = stronger binding
Sequence,E-score
CCCCAGGC,-0.318
ATCGACCA,-0.139
AACTGTGC,-0.0485
AGATTTAC,0.189
CAGAATAA,0.208
CGGCTGCC,-0.306
ACTTCAAT,0.261
GTGCACAC,0.0119
CCAATAAG,0.0804
GGTGATCA,-0.0634
AGTGGGTA,-0.127
TAACCGGA,-0.106
ACTATCTG,-0.101
ATTAGATC,0.196
ACCAGTAC,-0.0341
ATGTTGCC,0.0283
ATCCTAAC,0.084
ACCGGAGT,-0.246
ACAGAGCA,0.0262
AGACATAA,0.241
CGCGCCCC,-0.393
GAACCTCA,-0.0664
CCCCAGCG,-0.3
ACAATTAA,0.364

# Block 4
# Target: Histone acetyltransferase KAT6A, both winged helices, GST fusion (KAT6A, Homo sapiens, UniProt Q92794, residues 1-181)
# Technique: protein binding microarray
# Form: double-stranded DNA, one strand shown
# Matrix: in vitro
# Tested at: not given
# Setting: 8-mer, flanks averaged, mean of 2 arrays, mostly near background
# Reference: not given
# Direction: higher = stronger binding
# Target sequence (chain): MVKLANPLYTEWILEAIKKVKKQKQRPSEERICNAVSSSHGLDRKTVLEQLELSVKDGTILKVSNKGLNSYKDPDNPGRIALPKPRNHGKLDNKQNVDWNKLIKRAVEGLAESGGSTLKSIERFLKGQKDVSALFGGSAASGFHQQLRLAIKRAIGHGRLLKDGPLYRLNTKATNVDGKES
Sequence,E-score
CGTTCCTA,-0.0786
CGGTGCAC,0.0627
TCACCCGA,0.0521
CCTAGTTA,-0.0197
GAGGCATA,-0.0394
GTTAGGAA,-0.104
AGGTGGCC,-0.149
AGTGGGCA,-0.166
TACACGCA,0.0867
GCTGTCGA,-0.0209
TATTGAAA,-0.0878
CAGCAGGC,-0.0154
CATTGGCG,0.105
ACAGATGG,-0.067
GGCATCTA,-0.129
CATGCACG,0.0274
ACTCGAAA,-0.127
CCCTATCA,-0.241

# Block 5
# Target: CCND1, cyclin fold, Cln2 fusion (human)
# Technique: yeast growth competition, sequencing
# Matrix: yeast
# Setting: strong parent motif
# Reference: not given
# Direction: higher = stronger binding
# Starting sequence: PKN2 docking peptide (human); VSAVQKLDFSDTM
Variant,normalised enrichment score
VSAVQKLDFYDTM [S10Y],1.01
VSAVQKRDFSDTM [L7R],0.0814
VSAVQKLDFSDLM [T12L],2.63
VSAVQGLDFSDTM [K6G],0.971
VSAVQKLDFSDTQ [M13Q],2.62
VSAVQKLDFSDTA [M13A],1.97
VEAVQKLDFSDTM [S2E],0.218
VSAVQKCDFSDTM [L7C],0.382
VSAVQKIDFSDTM [L7I],1.19
VAAVQKLDFSDTM [S2A],2.07
VSAVQKLDFPDTM [S10P],1.19
VSAVQKLDFSDTS [M13S],1.91
VSAVQKLDFSETM [D11E],1.91
VSAVQKLDFSQTM [D11Q],1.52
VSSVQKLDFSDTM [A3S],1.21
VSAVQMLDFSDTM [K6M],1.39
VSAVQKLDFSMTM [D11M],1.43
VSAVQKLDFQDTM [S10Q],0.66
VSAVQKWDFSDTM [L7W],0.544
VSAVQKLQFSDTM [D8Q],1.26
VSAVQCLDFSDTM [K6C],2.14
VSYVQKLDFSDTM [A3Y],0.567
VSAVQKLDFSDVM [T12V],2.08
VSAVQKLDFSDTK [M13K],1.51
VSAVQKADFSDTM [L7A],-0.153

# Some of these lines once more (block 4):
Sequence,E-score
CGTTCCTA,-0.0786
CGGTGCAC,0.0627
TCACCCGA,0.0521
CCTAGTTA,-0.0197
GAGGCATA,-0.0394
GTTAGGAA,-0.104
AGGTGGCC,-0.149
AGTGGGCA,-0.166
TACACGCA,0.0867
GCTGTCGA,-0.0209
TATTGAAA,-0.0878
CAGCAGGC,-0.0154
CATTGGCG,0.105
ACAGATGG,-0.067
